# Measured values of several laboratories.
# Each line is one published result; not all experiments were run side by side.
# CTSL: Procathepsin L (CTSL, Homo sapiens, UniProt P07711)
# UniProt P07711, sequence (whole entry, looked up): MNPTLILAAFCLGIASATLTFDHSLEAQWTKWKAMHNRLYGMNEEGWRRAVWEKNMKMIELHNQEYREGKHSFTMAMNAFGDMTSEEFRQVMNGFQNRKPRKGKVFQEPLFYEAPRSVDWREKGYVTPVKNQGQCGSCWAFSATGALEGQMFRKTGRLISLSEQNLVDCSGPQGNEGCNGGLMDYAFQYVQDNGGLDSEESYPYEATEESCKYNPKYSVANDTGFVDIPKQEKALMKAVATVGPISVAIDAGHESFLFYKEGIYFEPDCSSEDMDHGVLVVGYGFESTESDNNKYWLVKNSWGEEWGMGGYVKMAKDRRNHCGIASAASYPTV
# DRD3: D(3) dopamine receptor (DRD3, Homo sapiens, UniProt P35462)
# UniProt P35462, sequence (whole entry, looked up): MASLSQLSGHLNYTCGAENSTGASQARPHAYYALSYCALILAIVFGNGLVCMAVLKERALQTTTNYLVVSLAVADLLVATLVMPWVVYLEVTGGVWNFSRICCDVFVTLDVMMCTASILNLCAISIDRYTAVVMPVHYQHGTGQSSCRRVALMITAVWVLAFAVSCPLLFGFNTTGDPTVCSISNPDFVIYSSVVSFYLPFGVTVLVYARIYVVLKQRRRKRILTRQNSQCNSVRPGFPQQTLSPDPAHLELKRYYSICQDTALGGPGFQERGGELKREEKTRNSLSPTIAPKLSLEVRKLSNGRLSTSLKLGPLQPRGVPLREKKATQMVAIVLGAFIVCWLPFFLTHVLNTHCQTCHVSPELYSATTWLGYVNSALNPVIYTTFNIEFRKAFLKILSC
# UniProt Q00537, sequence (whole entry, looked up): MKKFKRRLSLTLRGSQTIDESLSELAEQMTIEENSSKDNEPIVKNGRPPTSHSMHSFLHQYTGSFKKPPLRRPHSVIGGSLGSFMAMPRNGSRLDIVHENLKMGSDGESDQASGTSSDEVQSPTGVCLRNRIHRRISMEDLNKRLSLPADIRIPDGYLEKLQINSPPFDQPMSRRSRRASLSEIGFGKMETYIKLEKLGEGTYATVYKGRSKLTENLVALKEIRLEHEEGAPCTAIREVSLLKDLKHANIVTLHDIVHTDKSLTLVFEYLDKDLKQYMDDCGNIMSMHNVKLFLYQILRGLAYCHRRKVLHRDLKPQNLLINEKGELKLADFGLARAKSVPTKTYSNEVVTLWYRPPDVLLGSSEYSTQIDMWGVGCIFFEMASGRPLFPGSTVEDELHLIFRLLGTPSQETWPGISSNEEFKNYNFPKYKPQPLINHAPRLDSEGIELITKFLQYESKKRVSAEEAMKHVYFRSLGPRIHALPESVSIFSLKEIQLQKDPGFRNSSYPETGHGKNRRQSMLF
# UniProt Q969F8, sequence (whole entry, unmodified, looked up): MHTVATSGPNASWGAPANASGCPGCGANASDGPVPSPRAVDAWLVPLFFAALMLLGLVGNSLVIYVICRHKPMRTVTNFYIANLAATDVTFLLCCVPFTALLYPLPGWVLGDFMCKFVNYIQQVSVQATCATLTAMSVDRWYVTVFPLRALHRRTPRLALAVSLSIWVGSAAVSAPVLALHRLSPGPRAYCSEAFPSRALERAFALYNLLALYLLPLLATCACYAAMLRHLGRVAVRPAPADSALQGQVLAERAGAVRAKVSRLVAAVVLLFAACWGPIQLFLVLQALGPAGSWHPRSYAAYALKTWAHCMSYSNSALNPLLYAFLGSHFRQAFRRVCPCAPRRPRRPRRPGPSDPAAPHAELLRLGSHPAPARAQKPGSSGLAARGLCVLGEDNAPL
# UniProt P22607, sequence (whole entry, looked up): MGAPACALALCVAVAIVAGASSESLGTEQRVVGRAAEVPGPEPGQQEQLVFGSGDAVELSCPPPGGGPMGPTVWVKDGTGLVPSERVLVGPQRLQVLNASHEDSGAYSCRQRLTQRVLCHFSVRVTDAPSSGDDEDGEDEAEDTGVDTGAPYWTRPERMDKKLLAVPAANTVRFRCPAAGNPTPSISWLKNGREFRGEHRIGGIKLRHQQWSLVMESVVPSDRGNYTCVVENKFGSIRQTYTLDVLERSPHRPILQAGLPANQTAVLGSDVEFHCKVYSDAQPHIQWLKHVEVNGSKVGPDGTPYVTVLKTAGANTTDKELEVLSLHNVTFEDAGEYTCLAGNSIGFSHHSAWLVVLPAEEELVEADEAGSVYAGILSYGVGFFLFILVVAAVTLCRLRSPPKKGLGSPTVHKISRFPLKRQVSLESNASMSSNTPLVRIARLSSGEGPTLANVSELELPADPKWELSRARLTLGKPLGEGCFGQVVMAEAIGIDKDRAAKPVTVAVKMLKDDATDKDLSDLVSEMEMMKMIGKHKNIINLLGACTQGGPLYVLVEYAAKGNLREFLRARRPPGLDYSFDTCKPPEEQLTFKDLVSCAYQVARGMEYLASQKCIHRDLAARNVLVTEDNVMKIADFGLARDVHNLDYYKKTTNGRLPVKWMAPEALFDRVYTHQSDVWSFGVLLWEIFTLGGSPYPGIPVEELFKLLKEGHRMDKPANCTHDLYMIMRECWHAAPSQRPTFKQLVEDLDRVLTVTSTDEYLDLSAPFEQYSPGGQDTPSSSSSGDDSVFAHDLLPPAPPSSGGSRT
# UniProt Q9P1W9, sequence (whole entry, looked up): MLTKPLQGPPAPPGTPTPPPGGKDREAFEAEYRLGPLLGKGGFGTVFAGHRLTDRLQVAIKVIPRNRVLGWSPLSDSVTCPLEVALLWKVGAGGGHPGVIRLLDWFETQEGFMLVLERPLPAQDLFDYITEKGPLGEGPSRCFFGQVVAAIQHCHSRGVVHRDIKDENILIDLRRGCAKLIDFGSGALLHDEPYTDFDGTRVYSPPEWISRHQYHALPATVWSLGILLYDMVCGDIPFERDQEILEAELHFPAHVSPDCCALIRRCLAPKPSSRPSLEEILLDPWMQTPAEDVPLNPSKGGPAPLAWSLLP
# UniProt O75582, sequence (whole entry, looked up): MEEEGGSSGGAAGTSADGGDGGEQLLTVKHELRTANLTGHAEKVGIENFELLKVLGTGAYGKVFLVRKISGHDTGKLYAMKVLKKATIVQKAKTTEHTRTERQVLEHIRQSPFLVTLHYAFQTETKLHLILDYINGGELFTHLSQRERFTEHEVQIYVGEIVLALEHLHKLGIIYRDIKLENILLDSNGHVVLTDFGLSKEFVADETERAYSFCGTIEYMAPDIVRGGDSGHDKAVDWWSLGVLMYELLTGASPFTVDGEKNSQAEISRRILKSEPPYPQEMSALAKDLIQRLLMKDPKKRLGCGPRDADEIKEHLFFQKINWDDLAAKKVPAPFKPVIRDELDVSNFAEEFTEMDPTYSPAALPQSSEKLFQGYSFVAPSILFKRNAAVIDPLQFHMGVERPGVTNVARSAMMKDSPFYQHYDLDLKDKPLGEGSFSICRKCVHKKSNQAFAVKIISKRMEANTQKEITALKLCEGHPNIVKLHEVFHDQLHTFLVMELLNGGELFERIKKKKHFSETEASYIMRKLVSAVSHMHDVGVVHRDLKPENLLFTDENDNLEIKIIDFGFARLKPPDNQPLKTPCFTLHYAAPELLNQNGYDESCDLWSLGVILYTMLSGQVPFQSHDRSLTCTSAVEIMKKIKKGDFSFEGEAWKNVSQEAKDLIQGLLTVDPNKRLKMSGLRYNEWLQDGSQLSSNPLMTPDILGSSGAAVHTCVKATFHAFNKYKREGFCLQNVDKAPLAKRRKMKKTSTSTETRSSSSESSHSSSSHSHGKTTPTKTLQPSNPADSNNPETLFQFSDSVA
# UniProt Q9BVS4, sequence (whole entry, looked up): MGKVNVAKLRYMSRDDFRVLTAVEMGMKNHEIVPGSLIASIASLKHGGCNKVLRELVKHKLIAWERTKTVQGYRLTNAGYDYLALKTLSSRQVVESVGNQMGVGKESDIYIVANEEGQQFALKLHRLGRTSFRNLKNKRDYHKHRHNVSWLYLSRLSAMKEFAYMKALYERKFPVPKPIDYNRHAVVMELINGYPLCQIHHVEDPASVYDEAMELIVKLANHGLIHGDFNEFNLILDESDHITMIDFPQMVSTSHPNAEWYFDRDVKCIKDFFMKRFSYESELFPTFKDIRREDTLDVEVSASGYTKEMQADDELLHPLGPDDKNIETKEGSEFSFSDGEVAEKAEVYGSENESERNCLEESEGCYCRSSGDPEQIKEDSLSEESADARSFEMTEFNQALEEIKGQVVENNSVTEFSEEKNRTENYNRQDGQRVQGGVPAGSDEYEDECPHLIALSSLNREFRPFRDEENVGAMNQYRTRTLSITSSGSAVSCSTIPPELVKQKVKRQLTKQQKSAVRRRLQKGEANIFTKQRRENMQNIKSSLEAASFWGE
# UniProt Q92772, sequence (whole entry, looked up): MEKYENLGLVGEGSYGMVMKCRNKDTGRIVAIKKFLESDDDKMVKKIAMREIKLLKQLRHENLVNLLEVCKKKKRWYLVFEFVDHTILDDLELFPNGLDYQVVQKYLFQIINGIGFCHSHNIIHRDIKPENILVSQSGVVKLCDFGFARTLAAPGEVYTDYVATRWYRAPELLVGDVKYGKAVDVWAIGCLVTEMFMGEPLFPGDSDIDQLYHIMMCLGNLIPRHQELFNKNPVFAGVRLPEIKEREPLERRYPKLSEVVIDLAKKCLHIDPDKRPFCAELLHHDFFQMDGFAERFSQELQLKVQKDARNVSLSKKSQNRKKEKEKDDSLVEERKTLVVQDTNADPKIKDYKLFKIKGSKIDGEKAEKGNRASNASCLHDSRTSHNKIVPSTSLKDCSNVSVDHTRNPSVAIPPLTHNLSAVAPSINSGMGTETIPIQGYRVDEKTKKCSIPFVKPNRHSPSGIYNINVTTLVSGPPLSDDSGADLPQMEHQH
SMILES,target,assay,test system,conditions,endpoint,value
C=CC(=O)N1CCC(COCC(=O)N2CCN(c3nc(-c4cnc(N)nc4C(F)F)nc(N4CCOC[C@@H]4C)n3)CC2)CC1,"Serine/threonine-protein kinase pim-2 (PIM2, Homo sapiens, UniProt Q9P1W9)","binding, competition with immobilised ligand",,1 µM,remaining binding,100%
Cc1cc2c(cc1N1C(=O)c3cccc4c(Cl)ccc(c34)C1=O)n(C)c(=O)n2C,"Bromodomain-containing protein 3, BD1 (BRD3, Homo sapiens, UniProt Q15059)","thermal stability, DSF",,10 µM,ΔTm,-0.3 °C
Cc1cc([C@@H](C)Nc2ccccc2C(=O)O)c2nc(N3CCC(F)(F)CC3)c(C#N)c(=O)n2c1,"Serine/threonine-protein kinase RIO2 (RIOK2, Homo sapiens, UniProt Q9BVS4)","binding, competition with immobilised ligand",,10 µM,remaining binding,80%
COc1ccc2c3ccnc4ccc(=O)n(c2c1)c43,CTSL,"enzyme activity, inhibitor",,100 µM,remaining activity,125%
CNc1ncc2c(/C=C/C(=O)N3CCC(OC)CC3)nn(Cc3cccc(C(F)(F)F)c3)c2n1,"Cyclin-dependent kinase 17, with p35 (CDK17, Homo sapiens, UniProt Q00537)","enzyme activity, inhibitor, radiometric",,1 µM,remaining activity,101%
COc1ccc2oc(-c3ccc4nc(N)oc4c3)c/c(=N\c3ccccc3NC(=O)CCN)c2c1,"DNA-dependent protein kinase catalytic subunit (PRKDC, Homo sapiens, UniProt P78527)",binding,,1 µM,remaining binding,107%
COc1c(/C=C/C(=O)c2ccc(O)cc2)ccc(O)c1CC=C(C)C,CTSL,"enzyme activity, inhibitor",,100 µM,remaining activity,79.2%
Cc1[nH]c(C)c(S(=O)(=O)Nc2ccc(C3CC3)c(Cl)c2)c1C(=O)N1CCC(F)(F)C1,DRD3,"β-arrestin recruitment, agonist",,90 min,Emax,103%
Nc1ncnc2occ(-c3ccc(NC(=O)Nc4cc(C(F)(F)F)ccc4F)cc3)c12,"Ephrin type-B receptor 6 (EPHB6, Homo sapiens, UniProt O15197)",cell-free assay,,20 µM,remaining signal,0%
C1=C/COCc2cc(ccc2OCCN2CCCC2)Nc2nccc(n2)-c2cccc(c2)COC/1,"Cyclin-dependent kinase-like 2 (CDKL2, Homo sapiens, UniProt Q92772)",binding,,0.1 µM,remaining binding,0%
Cc1[nH]c(C)c(S(=O)(=O)Nc2ccc(C(F)(F)F)c(Cl)c2)c1C(=O)N1CCC(C#N)C1 (stereo not shown),DRD3,"β-arrestin recruitment, agonist",,90 min,Emax,110%
O=C1c2c(O)cc(O)cc2O[C@H](c2ccc(O)cc2)[C@H]1O,CTSL,"enzyme activity, inhibitor",,100 µM,remaining activity,147%
CC[C@H](C)[C@H](NC(=O)[C@H](CCC(N)=O)NC(=O)[C@H](CCCNC(=N)N)NC(=O)[C@H](CO)NC(=O)[C@H](Cc1c[nH]cn1)NC(=O)[C@@H]1CCCN1C(=O)[C@H](C)NC(=O)[C@H](CO)NC(=O)[C@H](CC(C)C)NC(=O)CNC(=O)[C@@H]1CCCN1C(=O)[C@H](CCC(N)=O)NC(=O)[C@H](CCC(N)=O)NC(=O)[C@H](CCCNC(=N)N)NC(=O)[C@H](CO)NC(=O)CNC(=O)[C@H](CO)NC(=O)[C@H](CO)NC(=O)[C@H](CCC(=O)O)NC(=O)[C@@H]1CCCN1C(=O)[C@@H]1CCCN1C(=O)[C@@H]1CCCN1C(=O)[C@H](CO)NC(=O)[C@H](CC(C)C)NC(=O)[C@H](CO)NC(=O)[C@@H](NC(=O)CN)[C@@H](C)O)C(=O)N1CCC[C@H]1C(=O)N[C@@H](C)C(=O)N1CCC[C@H]1C(=O)N[C@@H](CCC(N)=O)C(=O)NCC(=O)N[C@@H](C)C(=O)N[C@H](C(=O)N[C@@H](CC(C)C)C(=O)N[C@H](C(=O)N[C@@H](CCC(N)=O)C(=O)N[C@@H](CCCNC(=N)N)C(=O)N[C@@H](CCC(=O)O)C(=O)N[C@@H](CCCCN)C(=O)N[C@@H](CC(=O)O)C(=O)N[C@@H](CC(C)C)C(=O)N1CCC[C@H]1C(=O)N[C@@H](CC(N)=O)C(=O)N[C@@H](Cc1ccc(O)cc1)C(=O)N[C@@H](CC(N)=O)C(=O)N[C@@H](Cc1c[nH]c2ccccc12)C(=O)N[C@@H](CC(N)=O)C(=O)N[C@@H](CO)C(=O)N[C@@H](Cc1ccccc1)C(=O)NCC(=O)N[C@@H](CC(C)C)C(=O)N[C@@H](CCCNC(=N)N)C(=O)N[C@@H](Cc1ccccc1)C(N)=O)C(C)C)C(C)C,"KiSS-1 receptor (KISS1R, Homo sapiens, UniProt Q969F8, Y313A)","inositol phosphate, agonist",HEK293,,Emax,51.6%
C1CNCCNCCNCCN1,CTSL,"enzyme activity, inhibitor",,100 µM,remaining activity,100%
CCCCC(=O)Nc1ccc(-c2ccc3ncn(CCC)c(=O)c3c2)cn1,"Ribosomal protein S6 kinase alpha-5, C-terminal kinase domain (RPS6KA5, Homo sapiens, UniProt O75582)","binding, competition with immobilised ligand",,0.5 µM,remaining binding,100%
COc1cc(-c2cncc3c2CN(C)Cc2cc(N4CCNCC4)ccc2-3)cc(OC)c1OC,"Fibroblast growth factor receptor 3 (FGFR3, Homo sapiens, UniProt P22607)","enzyme activity, inhibitor",,1 µM,remaining activity,93%

# Excerpt of the above:
SMILES,target,assay,test system,conditions,endpoint,value
Cc1cc([C@@H](C)Nc2ccccc2C(=O)O)c2nc(N3CCC(F)(F)CC3)c(C#N)c(=O)n2c1,"Serine/threonine-protein kinase RIO2 (RIOK2, Homo sapiens, UniProt Q9BVS4)","binding, competition with immobilised ligand",,10 µM,remaining binding,80%
COc1ccc2c3ccnc4ccc(=O)n(c2c1)c43,CTSL,"enzyme activity, inhibitor",,100 µM,remaining activity,125%
